Published values gathered from unrelated publications.
Compare with care: the assays were run in different laboratories. Values joined by “and” are separate records of one study, mostly repeats; a detail may differ. ± marks the error that the study gave.
APP: Amyloid-beta precursor protein (APP, Homo sapiens, UniProt P05067)
Sequence of UniProt P61073 (whole entry, looked up): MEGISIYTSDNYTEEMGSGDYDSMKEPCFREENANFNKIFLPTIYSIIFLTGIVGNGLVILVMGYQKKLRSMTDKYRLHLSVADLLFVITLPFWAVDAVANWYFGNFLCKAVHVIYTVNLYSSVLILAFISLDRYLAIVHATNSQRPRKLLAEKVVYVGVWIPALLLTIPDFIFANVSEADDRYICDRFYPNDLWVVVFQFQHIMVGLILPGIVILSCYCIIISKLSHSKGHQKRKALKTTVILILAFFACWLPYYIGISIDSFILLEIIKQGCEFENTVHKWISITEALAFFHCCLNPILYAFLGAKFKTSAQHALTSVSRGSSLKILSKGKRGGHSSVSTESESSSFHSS
Sequence of UniProt P50750 (whole entry, looked up): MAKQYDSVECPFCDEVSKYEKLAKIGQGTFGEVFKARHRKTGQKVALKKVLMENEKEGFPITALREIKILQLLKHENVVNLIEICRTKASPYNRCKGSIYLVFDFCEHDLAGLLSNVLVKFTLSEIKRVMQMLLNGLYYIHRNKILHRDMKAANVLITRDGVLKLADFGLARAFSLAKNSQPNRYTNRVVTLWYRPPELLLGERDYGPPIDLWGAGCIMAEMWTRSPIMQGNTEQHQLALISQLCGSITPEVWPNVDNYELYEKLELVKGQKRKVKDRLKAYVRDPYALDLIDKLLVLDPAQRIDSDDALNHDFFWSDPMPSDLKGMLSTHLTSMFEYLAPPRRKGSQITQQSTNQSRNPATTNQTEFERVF
Sequence of UniProt Q96CP6 (whole entry, looked up): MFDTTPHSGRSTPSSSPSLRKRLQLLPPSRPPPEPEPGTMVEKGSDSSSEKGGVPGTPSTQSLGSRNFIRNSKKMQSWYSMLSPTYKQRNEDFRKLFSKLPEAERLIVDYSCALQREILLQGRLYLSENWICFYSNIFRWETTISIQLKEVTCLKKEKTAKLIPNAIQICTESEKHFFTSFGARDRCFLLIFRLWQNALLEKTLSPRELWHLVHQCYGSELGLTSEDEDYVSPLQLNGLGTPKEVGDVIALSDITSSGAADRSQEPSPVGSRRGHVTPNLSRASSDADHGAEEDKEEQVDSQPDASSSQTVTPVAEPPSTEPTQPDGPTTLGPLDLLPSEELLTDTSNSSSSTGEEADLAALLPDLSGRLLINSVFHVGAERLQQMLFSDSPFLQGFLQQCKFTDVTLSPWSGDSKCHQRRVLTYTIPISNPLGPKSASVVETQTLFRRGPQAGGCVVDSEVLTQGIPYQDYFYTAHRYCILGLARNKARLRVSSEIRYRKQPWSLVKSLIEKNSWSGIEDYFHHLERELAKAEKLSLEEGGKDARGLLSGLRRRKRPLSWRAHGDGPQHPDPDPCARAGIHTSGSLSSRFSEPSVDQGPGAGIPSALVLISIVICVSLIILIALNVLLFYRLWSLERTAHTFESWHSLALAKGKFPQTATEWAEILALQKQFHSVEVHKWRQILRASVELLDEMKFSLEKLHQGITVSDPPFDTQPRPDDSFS
Sequence of UniProt Q9UQ88 (whole entry, looked up): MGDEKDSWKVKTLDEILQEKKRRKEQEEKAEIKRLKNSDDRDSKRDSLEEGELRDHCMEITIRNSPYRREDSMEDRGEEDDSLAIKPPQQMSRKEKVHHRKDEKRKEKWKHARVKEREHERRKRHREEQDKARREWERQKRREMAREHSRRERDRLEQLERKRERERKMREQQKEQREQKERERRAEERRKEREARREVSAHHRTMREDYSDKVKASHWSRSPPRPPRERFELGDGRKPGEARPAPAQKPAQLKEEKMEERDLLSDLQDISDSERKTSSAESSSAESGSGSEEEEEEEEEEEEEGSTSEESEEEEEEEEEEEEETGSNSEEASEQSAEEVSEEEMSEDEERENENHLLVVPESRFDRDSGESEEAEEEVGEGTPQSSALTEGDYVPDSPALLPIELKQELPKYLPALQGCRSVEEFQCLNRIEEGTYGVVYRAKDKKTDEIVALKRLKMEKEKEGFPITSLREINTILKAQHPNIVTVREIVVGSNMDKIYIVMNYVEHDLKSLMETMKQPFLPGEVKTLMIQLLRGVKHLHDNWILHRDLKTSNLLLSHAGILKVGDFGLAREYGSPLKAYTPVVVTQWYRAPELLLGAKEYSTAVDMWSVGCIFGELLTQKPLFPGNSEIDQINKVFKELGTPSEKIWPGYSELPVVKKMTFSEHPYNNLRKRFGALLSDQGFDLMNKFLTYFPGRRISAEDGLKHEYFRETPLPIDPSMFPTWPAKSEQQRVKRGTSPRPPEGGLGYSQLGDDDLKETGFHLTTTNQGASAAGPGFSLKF
Sequence of UniProt P16732 (whole entry, looked up): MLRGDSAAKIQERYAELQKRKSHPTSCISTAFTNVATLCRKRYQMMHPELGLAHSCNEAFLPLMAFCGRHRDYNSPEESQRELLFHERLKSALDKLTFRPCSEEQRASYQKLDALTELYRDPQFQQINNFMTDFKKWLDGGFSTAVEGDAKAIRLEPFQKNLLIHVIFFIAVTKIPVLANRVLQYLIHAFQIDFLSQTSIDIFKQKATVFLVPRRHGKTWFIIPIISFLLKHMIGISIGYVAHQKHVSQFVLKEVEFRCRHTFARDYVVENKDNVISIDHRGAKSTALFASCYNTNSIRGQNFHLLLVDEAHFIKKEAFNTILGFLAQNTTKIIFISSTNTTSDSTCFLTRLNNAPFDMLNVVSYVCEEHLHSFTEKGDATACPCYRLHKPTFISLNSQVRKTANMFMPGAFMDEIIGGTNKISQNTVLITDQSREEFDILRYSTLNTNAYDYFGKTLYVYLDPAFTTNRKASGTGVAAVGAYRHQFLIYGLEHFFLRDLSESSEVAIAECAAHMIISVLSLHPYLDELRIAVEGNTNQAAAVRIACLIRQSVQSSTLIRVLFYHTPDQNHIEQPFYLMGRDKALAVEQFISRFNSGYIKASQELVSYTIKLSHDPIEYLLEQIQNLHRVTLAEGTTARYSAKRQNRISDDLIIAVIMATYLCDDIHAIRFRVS
Sequence of UniProt P43403 (whole entry, looked up): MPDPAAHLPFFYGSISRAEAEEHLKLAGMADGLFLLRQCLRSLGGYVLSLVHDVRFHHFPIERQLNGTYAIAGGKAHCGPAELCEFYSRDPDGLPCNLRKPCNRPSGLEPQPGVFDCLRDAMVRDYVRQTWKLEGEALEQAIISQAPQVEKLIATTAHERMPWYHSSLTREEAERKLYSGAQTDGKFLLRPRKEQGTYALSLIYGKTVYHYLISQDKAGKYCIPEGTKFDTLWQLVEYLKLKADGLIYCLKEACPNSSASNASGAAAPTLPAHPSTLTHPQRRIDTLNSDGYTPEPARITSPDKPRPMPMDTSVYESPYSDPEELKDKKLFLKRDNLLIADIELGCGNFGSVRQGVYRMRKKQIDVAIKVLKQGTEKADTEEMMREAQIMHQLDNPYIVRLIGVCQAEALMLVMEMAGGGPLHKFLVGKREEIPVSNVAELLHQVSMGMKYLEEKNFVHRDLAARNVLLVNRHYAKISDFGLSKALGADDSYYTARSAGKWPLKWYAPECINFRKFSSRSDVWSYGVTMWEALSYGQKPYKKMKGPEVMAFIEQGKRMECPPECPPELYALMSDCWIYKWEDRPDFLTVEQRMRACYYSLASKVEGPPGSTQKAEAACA
Sequence of UniProt Q63HM1 (whole entry, looked up): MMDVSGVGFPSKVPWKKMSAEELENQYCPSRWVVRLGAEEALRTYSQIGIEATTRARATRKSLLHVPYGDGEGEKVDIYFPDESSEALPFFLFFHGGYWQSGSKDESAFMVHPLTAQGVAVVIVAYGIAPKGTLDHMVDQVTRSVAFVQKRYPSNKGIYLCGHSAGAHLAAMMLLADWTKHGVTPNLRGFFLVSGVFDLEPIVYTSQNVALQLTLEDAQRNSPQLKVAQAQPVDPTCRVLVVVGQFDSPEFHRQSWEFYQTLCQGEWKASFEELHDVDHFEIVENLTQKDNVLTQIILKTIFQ
Sequence of UniProt P54762 (whole entry, looked up): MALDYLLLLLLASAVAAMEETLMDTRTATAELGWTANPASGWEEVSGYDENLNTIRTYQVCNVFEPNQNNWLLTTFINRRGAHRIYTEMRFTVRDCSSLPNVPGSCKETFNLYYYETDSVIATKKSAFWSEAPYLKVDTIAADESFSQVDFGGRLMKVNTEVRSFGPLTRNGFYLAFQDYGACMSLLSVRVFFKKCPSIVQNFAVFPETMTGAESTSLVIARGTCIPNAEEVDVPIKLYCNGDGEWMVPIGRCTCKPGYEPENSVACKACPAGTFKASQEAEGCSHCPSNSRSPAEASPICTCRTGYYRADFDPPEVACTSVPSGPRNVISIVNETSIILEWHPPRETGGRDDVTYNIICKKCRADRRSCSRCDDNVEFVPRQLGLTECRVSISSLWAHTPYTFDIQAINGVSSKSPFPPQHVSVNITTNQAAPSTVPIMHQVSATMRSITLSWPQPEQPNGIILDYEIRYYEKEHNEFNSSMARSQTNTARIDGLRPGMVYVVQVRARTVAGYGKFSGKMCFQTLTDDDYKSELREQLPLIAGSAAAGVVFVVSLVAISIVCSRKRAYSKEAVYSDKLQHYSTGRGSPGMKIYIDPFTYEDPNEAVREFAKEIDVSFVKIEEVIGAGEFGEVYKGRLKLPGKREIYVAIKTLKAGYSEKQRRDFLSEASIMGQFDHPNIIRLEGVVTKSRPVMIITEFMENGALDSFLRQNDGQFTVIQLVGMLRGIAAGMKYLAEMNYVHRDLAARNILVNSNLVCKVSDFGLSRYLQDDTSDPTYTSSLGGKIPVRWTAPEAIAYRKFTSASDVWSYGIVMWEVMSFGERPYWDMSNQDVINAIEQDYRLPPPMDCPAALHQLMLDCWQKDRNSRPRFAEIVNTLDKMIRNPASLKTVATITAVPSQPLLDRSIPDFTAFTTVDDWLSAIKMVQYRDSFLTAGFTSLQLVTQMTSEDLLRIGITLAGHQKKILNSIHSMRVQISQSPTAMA

Under “log2 fold change”, `CC[C@H](C)[C@@H]1NC(=O)[C@@H]2CCCN2C(=O)[C@H](CC(C)C)NC(=O)[C@H](CC(C)C)NC(=O)CNC(=O)[C@@H](NC(=O)[C@@H](NC(=O)[C@H](CC(=O)O)NC(=O)CNC(=O)[C@@H](NC(=O)[C@H](C)NC(=O)CNC(=O)[C@H](CCCCN)NC(=O)[C@H](CC(C)C)NC(=O)[C@H](CC(C)C)NC(=O)[C@H](CCCCN)NC(=O)CNC(=O)[C@@H](NC(=O)[C@@H](N)CC(C)C)C(C)C)C(C)C)C(C)C)CSSC[C@@H](C(=O)O)NC1=O` is recorded as -3.57 (RNA-seq, item: Pnmt mRNA; mouse traumatic brain injury, frontal cortex and hippocampus; dose not given; relative to: TBI plus compound vs TBI).
The inhibition of `COc1ccc(N2C(=O)N(c3c(C)cccc3Cl)Cc3cnc(Nc4ccc(C5CCN(C)CC5)cc4OC)nc32)nc1` is reported as 98% (EPHB1 (Homo sapiens, UniProt P54762); kinase activity; 0.5 µM).
The tissue uptake of `CC[C@H](C)[C@H](NC(=O)[C@H](Cc1ccccc1)NC(=O)[C@H](CCC(=O)O)NC(=O)[C@H](CCCNC(=N)N)NC(=O)[C@H](C)NC(=O)[C@H](C)NC(=O)[C@H](CCC(N)=O)NC(=O)[C@H](CCC(=O)O)NC(=O)[C@H](CCC(=O)O)NC(=O)[C@H](CC(C)C)NC(=O)[C@H](Cc1ccc(O)cc1)NC(=O)[C@H](CO)NC(=O)[C@H](CO)NC(=O)[C@@H](NC(=O)[C@H](CC(=O)O)NC(=O)[C@H](CO)NC(=O)[C@@H](NC(=O)[C@H](Cc1ccccc1)NC(=O)[C@@H](NC(=O)CNC(=O)[C@H](CCC(=O)O)NC(=O)[C@H](C)NC(=O)CCc1c[nH]cn1)[C@@H](C)O)[C@@H](C)O)C(C)C)C(=O)N[C@@H](C)C(=O)N[C@@H](Cc1c[nH]c2ccccc12)C(=O)N[C@@H](CC(C)C)C(=O)N[C@H](C(=O)N[C@@H](CCCNC(=N)N)C(=O)NCC(=O)N[C@@H](CCCNC(=N)N)C(=O)N[C@@H](CCCCNC(=O)COCCOCCNC(=O)COCCOCCNC(=O)CC[C@H](NC(=O)CCCCCCCCCCCCCCCCC(=O)O)C(=O)O)C(=O)NCC(=O)NCC(=O)N[C@@H](CO)C(=O)N[C@@H](CCCCNc1c(NCCCCCN(O)C(=O)CCC(=O)NCCCCCN(O)C(=O)CCC(=O)NCCCCCN(O)C(C)=O)c(=O)c1=O)C(=O)O)C(C)C` [zirconium-89 labelled] is reported as 0.11 %ID/g (rat, colon; sc, 3 nmol/kg, 168 h, ex vivo).
For `CO[C@H]1C[C@@H]2CC[C@@H](C)[C@@](O)(O2)C(=O)C(=O)N2CCCC[C@H]2C(=O)O[C@H]([C@H](C)C[C@@H]2CC[C@@H](OC(=O)NCCOCCOCCOCCOCCOCCOCCOCCOCCC(=O)N3CCc4cc(Cn5nc(-c6ccc7oc(N)nc7c6)c6c(N)ncnc65)ccc4C3)[C@H](OC)C2)C[C@@H](O)[C@H](C)/C=C(\C)[C@@H](O)[C@@H](OC)C(=O)[C@H](C)C[C@H](C)/C=C/C=C/C=C/1C`, “any TRAE incidence” read 75% (phase 1 dose escalation; advanced solid tumour patients; intravenous, 12 mg weekly, any grade).
`Nc1c2c(nc3c1C(c1ccc(Cl)c(Cl)c1)c1ccc(OCC(=O)c4ccc(Cl)cc4)cc1O3)CCCC2` (stereo not drawn) gave an inhibition of 33% (APP; Aβ42 self-aggregation, inhibitor, thioflavin T fluorescence; 0.1 µM).
With `C[C@H]1CN(c2n[nH]c3nc(N[C@H]4CC[C@H](NS(=O)(=O)CCC(F)(F)F)CC4)ncc23)CCO1` the remaining binding was 1.74 (Protein Aster-A (Homo sapiens, UniProt Q96CP6); Kinobeads competition, item: GRAMD1A; 0.16 µM, unit not given; relative to: vehicle).
`COc1cc2c(Oc3ccc4[nH]c(C)cc4c3F)ccnc2cc1OCC1(N)CC1`: “grade 3 T-wave abnormality” 0% (paediatric refractory sarcoma patients; 12 mg).
`Nc1c2c(nc3c1C(c1ccc(Cl)c(Cl)c1)c1ccc(OCC(=O)c4ccccc4)cc1O3)CCCC2` (stereo not drawn) has an inhibition of 27% (APP; Aβ42 self-aggregation, inhibitor, thioflavin T fluorescence; 0.1 µM).
For `Nc1ncnc2c1ncn2[C@@H]1O[C@H](C[C@@H](N)CC[C@H](N)C(=O)O)[C@@H](O)[C@H]1O`, the inhibition was 14.8% (Genome polyprotein, NS5 methyltransferase domain (Zika virus, UniProt Q32ZE1); NS5 enzyme activity, inhibitor; 0.7812 µM).
The inhibition of `O=[N+]([O-])c1ccc2c(c1)B(O)OC2` is reported as at most 10% (Genome polyprotein, NS2B-NS3 protease (dengue virus type 2, UniProt P29990); enzyme activity, FRET; dengue virus serotype 2; 50 µM, added: substrate 50 µM).
For `CC(C)C[C@@H]1NC(=O)[C@H](CC(C)C)NC(=O)[C@H](Cc2c[nH]c3ccccc23)NC(=O)[C@H](CO)NC(=O)[C@H](Cc2c[nH]c3ccccc23)NC(=O)[C@@H]2CCCN2C(=O)[C@H](CC(C)C)NC(=O)[C@H](Cc2c[nH]cn2)NC(=O)[C@@H]2CCCN2C(=O)[C@H](CC(N)=O)NC(=O)[C@H](C)NC(=O)[C@H](Cc2ccc(O)cc2)NC(=O)[C@H](CS)NC(=O)[C@H](CCCCNC(=O)CN2CCN(CC(=O)O)CCN(CC(=O)O)CCN(CC(=O)O)CC2)NC1=O` [lutetium-177 labelled], the tissue uptake was 2.45 %ID (Balb/c mouse, female, 4T1 tumour, liver; intravenous, 3.7 MBq, 72 h).
For `O=S(=O)(Nc1ccc2c(c1)B(O)OC2)c1ccc(Cl)cc1`, the inhibition was at most 10% (Genome polyprotein, NS2B-NS3 protease (West Nile virus, UniProt P06935); enzyme activity, FRET; 50 µM, added: substrate 50 µM).
The inhibition of `C[C@H](C(=O)N[C@H]1COc2ccccc2[C@@H]1S(C)(=O)=O)c1ccc(F)cc1` is reported as -10% (ADAM17 (Homo sapiens, UniProt P78536); enzyme activity; 10 µM, Eurofins selectivity panel).
With `CN(C(=O)n1cnc(-c2ccc[n+]([O-])c2)c1)C1CCCCC1` the inhibition was -6% (AVPR2 (Homo sapiens, UniProt P30518); radioligand binding; 50 µM, added: [3H]arginine vasopressin).
`Nc1ncnc2c1ncn2[C@@H]1O[C@@H]2COP(=O)(O)O[C@H]3[C@@H](O)[C@H](n4cnc5c(=O)[nH]cnc54)O[C@@H]3COP(=O)(O)O[C@H]2[C@H]1O`: “pathway fold enrichment” 9.59 (HFF-1; RNA sequencing Reactome analysis, item: Reactome R-HSA-180292 GAB1 signalosome; added: West Nile virus infection; relative to: West Nile virus infected cells, upregulated pathway).
`COc1cc(Nc2ncc(F)c(Nc3ccc4c(n3)NC(=O)C(C)(C)O4)n2)cc(OC)c1OC` gave an inhibition of 0% (CDK11A (Homo sapiens, UniProt Q9UQ88); binding, KINOMEscan; 10 µM, CDC2L2 kinase).
With `COCc1c(-c2cc3cc(C)cc(OC)c3s2)c2c(N)ncnn2c1CN1CCNC(=O)C1` the inhibition was 49% (GABAA chloride channel (TBOB site); radioligand binding; 10 µM).
`C[C@@H](O)[C@@H](CO)NC(=O)[C@@H](CCCNC(=N)N)NC(=O)[C@@H]1CCCN1C(=O)[C@@H]1CSSC[C@H](NC(=O)[C@H](Cc2ccccc2)NC(=O)CN2CCN(CC(=O)O)CCN(CC(=O)O)CCN(CC(=O)O)CC2)C(=O)N[C@@H](Cc2ccc(O)cc2)C(=O)N[C@@H](Cc2ccccc2)C(=O)N[C@@H](CCC(N)=O)C(=O)N[C@@H](CC(N)=O)C(=O)N1` [gallium-68 labelled] gave a tissue uptake of 1.4 %ID/g (Wistar rat, blood; intravenous, 8 MBq, 30 min, group mean).
For `C[C@H]1N=C(c2ccccc2F)c2cc(Br)ccc2-n2cnc(C(=O)O)c21`, the inhibition was 18.3 ± 8.7% (peripheral benzodiazepine receptor; binding; 10 µM).
`CC[C@H](C)[C@H](NC(=O)[C@@H](NC(=O)[C@H](N)Cc1ccccc1)C(C)C)C(=O)N[C@@H](C)C(N)=O` has an inhibition of 63.1% (APP; amyloid-beta aggregation, thioflavin T fluorescence; 0.5 µM, 144 h, added: 2 µM amyloid-beta).
With `O=C(Nc1cnccc1Cl)N1CCN(Cc2ccc3c(c2)OC(F)(F)O3)CC1` the inhibition was 12% and 14% (CXCR4 (Homo sapiens, UniProt P61073); radioligand binding, inhibitor; concentration not given).
`N=C(N)Nc1ccc(C(=O)Nc2ccc3c(c2)B(O)OC3)cc1` has an inhibition of 44 ± 7% (Genome polyprotein, NS2B-NS3 protease (dengue virus type 2, UniProt P29990); enzyme activity, FRET; dengue virus serotype 2; 50 µM, added: substrate 50 µM).
`O=C(Nc1cccnn1)N1CCC(=Cc2cccc(Oc3ccc(C(F)(F)F)cn3)c2)CC1` has an inhibition of -8% (ZAP70 (Homo sapiens, UniProt P43403); kinase activity, inhibitor; 50 µM, human, added: poly(Glu,Tyr)).
`O=C(Nc1ccc2c(c1)B(O)OC2)c1cccc(Oc2ccccc2)c1` has an inhibition of 10 ± 3% (Genome polyprotein, NS2B-NS3 protease (dengue virus type 2, UniProt P29990); enzyme activity, FRET; dengue virus serotype 2; 50 µM, added: substrate 50 µM).
`O=C(c1ccc(Cl)cc1)N1CCN2C(=O)N(OC(=O)N3CCOc4ccccc43)C(=O)C2C1` (stereo not drawn) gave a median ratio of 1.26 (Kynurenine formamidase (AFMID, Homo sapiens, UniProt Q63HM1); enzyme activity, inhibitor, MS-based ABPP; SW-620 conditioned medium; 10 µM, 1 h, 37 °C; relative to: compound over DMSO, lower = stronger inhibition).
For `FC(F)(F)c1cccc(Nc2nc(NCCOc3ccccc3)nc3[nH]cnc23)c1`, the inhibition was 7% and 6% (Cyclin-dependent kinase 9, with cyclin T1 (CDK9, Homo sapiens, UniProt P50750); enzyme activity, inhibitor, Thermo Fisher kinase screening; 5 µM).
With `O=c1[nH]c2cc(-c3ccccc3)ccc2c(=O)n1O` the inhibition was 97% (Tripartite terminase subunit 3, C-terminal nuclease domain (Human betaherpesvirus 5, UniProt P16732); endonuclease activity, ELISA; 20 µM, added: dsDNA).

Repeated from above:
With `COCc1c(-c2cc3cc(C)cc(OC)c3s2)c2c(N)ncnn2c1CN1CCNC(=O)C1` the inhibition was 49% (GABAA chloride channel (TBOB site); radioligand binding; 10 µM).
`C[C@@H](O)[C@@H](CO)NC(=O)[C@@H](CCCNC(=N)N)NC(=O)[C@@H]1CCCN1C(=O)[C@@H]1CSSC[C@H](NC(=O)[C@H](Cc2ccccc2)NC(=O)CN2CCN(CC(=O)O)CCN(CC(=O)O)CCN(CC(=O)O)CC2)C(=O)N[C@@H](Cc2ccc(O)cc2)C(=O)N[C@@H](Cc2ccccc2)C(=O)N[C@@H](CCC(N)=O)C(=O)N[C@@H](CC(N)=O)C(=O)N1` [gallium-68 labelled] gave a tissue uptake of 1.4 %ID/g (Wistar rat, blood; intravenous, 8 MBq, 30 min, group mean).
For `C[C@H]1N=C(c2ccccc2F)c2cc(Br)ccc2-n2cnc(C(=O)O)c21`, the inhibition was 18.3 ± 8.7% (peripheral benzodiazepine receptor; binding; 10 µM).
`CC[C@H](C)[C@H](NC(=O)[C@@H](NC(=O)[C@H](N)Cc1ccccc1)C(C)C)C(=O)N[C@@H](C)C(N)=O` has an inhibition of 63.1% (APP; amyloid-beta aggregation, thioflavin T fluorescence; 0.5 µM, 144 h, added: 2 µM amyloid-beta).
